Measurements gathered from unrelated publications.
Protocols differ between the studies behind these lines. Values joined by “and” are separate records of one study, mostly repeats; a detail may differ. ± marks the error that the study gave.

For CCCCCCCCCCCCCCC[C@@H](O)[C@H](CO)NC(=O)N[C@@H](CC(C)C)C(=O)N[C@@H](CC(C)C)C(=O)N[C@@H](CCC(N)=O)C(=O)N[C@@H](CC(C)C)C(=O)N[C@H](C(=O)N[C@H](C(=O)N[C@@H](Cc1c[nH]c2ccccc12)C(=O)NCC(=O)N[C@H](C(=O)N[C@@H](CCCCN)C(=O)N[C@@H](CCC(N)=O)C(=O)N[C@@H](CC(C)C)C(=O)N[C@@H](CCC(N)=O)C(=O)N[C@@H](C)C(=O)N[C@@H](CCCNC(=N)N)C(=O)N[C@H](C(=O)N[C@@H](CC(C)C)C(=O)N[C@@H](CCCCN)C(N)=O)[C@@H](C)CC)[C@@H](C)CC)C(C)C)[C@@H](C)O, the IC50 was 116 nM (HIV-1 HXB2; viral infectivity, luciferase reporter; TZM-bl).
For COCCCN1CCn2cc(C(=O)NCc3ccc(F)cc3F)c(=O)c(O)c2C1=O, the EC50 was 6.9 ± 1 nM (human immunodeficiency virus 1; single-round vector infection; integrase N155H).
With [O-][N+]1=C(c2ccccc2)C2=NCCCN2c2ncccc21 the MIC was ≤ 0.06 µg/mL (Bacteroides thetaiotaomicron; microbial growth; ATCC29148).
The EC50 of Cc1cc(/C=C/C#N)cc(C)c1-n1cnc2cnc(Nc3ccc(C#N)cc3)nc21 is reported as 0.4 ± 0.2 nM (HIV-1; viral replication, single-round infection; RT mutant V106A/L234I).
`ivermectin` gave a viral replication of 78.8 ± 9.17% (human adenovirus C5; reporter gene; A549; 5 µM, 72 h, added: digitoxin; baseline: DMSO control).
COCCN1CCn2cc(C(=O)NCc3ccc(F)cc3F)c(=O)c(O)c2C1=O has an EC50 of 431 ± 36.7 nM (human immunodeficiency virus 1; single-round vector infection; integrase G140S/Q148H).
CNCc1ccc2c(c1)N(C(=O)OCc1c(F)c(F)c(F)c(F)c1F)[C@H](CNC(=N)N)[C@H]2NC(=O)C(=O)Nc1ccc(Cl)c(F)c1 gave an IC50 of < 75000 nM and 40000 nM (HIV-1 AD8 Env E64G/S375N; viral infection).
CC(C)CC(C)n1ccn2cc(C(=O)NCc3ccc(F)cc3F)c(=O)c(O)c2c1=O (stereo not drawn) gave an EC50 of 6.8 ± 0.4 nM (human immunodeficiency virus 1; single-round vector infection; integrase R263K).
[O-][N+]1=C(c2ccccc2)C2=NCCN2c2ccccc21 has an MIC of ≤ 0.06 µg/mL (Bacteroides thetaiotaomicron; microbial growth; ATCC29148).
Cc1cc(C#N)cc(C)c1Oc1nc(NC2CCN(Cc3ccc(C(N)=O)cc3)CC2)nc2ccccc12 gave an EC50 of 145 ± 31 nM (HIV-1 GH9; viral replication; TZM-bl, K101P/K103N/V108I).
For Cc1nc([C@@H](NC(=O)c2ccc(-c3ccc(Cl)cc3)[nH]2)[C@H]2CCCCN2)sc1CO, the IC50 was 1700 ± 20 nM (HIV-1; viral replication; MT-2, IIIB).
O=C(NCc1ccc(F)cc1F)c1cn2ccn(CCCCCCO)c(=O)c2c(O)c1=O gave an EC50 of 19.7 ± 1.7 nM (human immunodeficiency virus 1; single-round vector infection; integrase N155H).
The IC50 of CNCc1ccc2c(c1)N(C(=O)OCc1ccccc1)[C@H](CNC(=N)N)[C@H]2NC(=O)C(=O)Nc1ccc(Cl)c(F)c1 is reported as 40000 nM and < 75000 nM (HIV-1 AD8 Env E64G/I424T; viral infection).
The EC50 of COCC(C)N1CCn2cc(C(=O)NCc3ccc(F)cc3F)c(=O)c(O)c2C1=O (stereo not drawn) is reported as 12.6 ± 0.7 nM (human immunodeficiency virus 1; single-round vector infection; integrase R263K).
With COc1ccc(C2=[N+]([O-])c3ccccc3N3CCCN=C23)cc1 the MIC was 1 µg/mL (Bacteroides thetaiotaomicron; microbial growth; ATCC29148).
For CC(C)N1CCn2cc(C(=O)NCc3ccc(F)cc3F)c(=O)c(O)c2C1=O, the EC50 was 4.7 ± 0.4 nM (human immunodeficiency virus 1; single-round vector infection; integrase S230N).
Cc1cc(/C=C/C#N)cc(C)c1Nc1nc(Nc2ccc(C#N)cc2)ncc1N has an EC50 of 4 ± 2 nM (HIV-1; viral replication, single-round infection; RT mutant M230L).
CC[C@H](C)[C@H](NC(=O)[C@H](CCCCN)NC(=O)[C@H](Cc1ccc(O)cc1)NC(=O)[C@H](CCC(N)=O)NC(=O)[C@H](Cc1c[nH]cn1)NC(=O)[C@@H](NC(=O)[C@H](Cc1ccccc1)NC(=O)[C@H](Cc1c[nH]cn1)NC(=O)[C@@H](NC(=O)[C@@H](NC(=O)CNC(=O)[C@H](CCCNC(=N)N)NC(=O)[C@H](Cc1c[nH]c2ccccc12)NC(=O)[C@H](CC(C)C)NC(=O)[C@H](CO)NC(=O)[C@H](CCC(=O)O)NC(=O)[C@H](CC(C)C)NC(=O)[C@H](CCC(=O)O)NC(=O)[C@H](CC(N)=O)NC(=O)[C@H](CC(C)C)NC(=O)[C@H](CC(=O)O)NC(=O)[C@H](CO)NC(=O)[C@H](CCC(=O)O)NC(=O)[C@@H](NC(=O)[C@H](CC(C)C)NC(=O)[C@H](CCC(N)=O)NC(=O)[C@H](CCC(=O)O)NC(=O)[C@H](CCC(=O)O)NC(=O)[C@H](CC(C)C)NC(=O)[C@@H]1CCCN1C(=O)[C@@H](N)Cc1ccccc1)[C@@H](C)O)[C@@H](C)O)[C@@H](C)O)C(C)C)C(=O)N[C@@H](CCSC)C(=O)N1CCC[C@H]1C(=O)N[C@@H](Cc1ccccc1)C(=O)N[C@@H](CCCNC(=N)N)C(=O)N[C@@H](CCCCN)C(=O)N[C@@H](CC(C)C)C(=O)N[C@H](C(=O)N[C@@H](Cc1ccccc1)C(=O)N[C@@H](CCCCN)C(=O)N[C@@H](CCCNC(=N)N)C(=O)N[C@@H](CCCNC(=N)N)C(=O)N[C@@H](CCCCN)C(=O)N[C@@H](CC(N)=O)C(N)=O)C(C)C has an MIC of > 50 µM (Escherichia coli; ATCC 35218, MHC medium with bicarbonate).

Excerpt of the above:
The EC50 of COCC(C)N1CCn2cc(C(=O)NCc3ccc(F)cc3F)c(=O)c(O)c2C1=O (stereo not drawn) is reported as 12.6 ± 0.7 nM (human immunodeficiency virus 1; single-round vector infection; integrase R263K).
The IC50 of CNCc1ccc2c(c1)N(C(=O)OCc1ccccc1)[C@H](CNC(=N)N)[C@H]2NC(=O)C(=O)Nc1ccc(Cl)c(F)c1 is reported as 40000 nM and < 75000 nM (HIV-1 AD8 Env E64G/I424T; viral infection).
